Assay results collected from several papers.
Lines come from different studies, so protocols differ. Numbers after ± are the reported error. Converted amounts (≈) assume the structure as drawn.

C=C(C)[C@@H]1CC[C@]2(NCCN3CCS(=O)(=O)CC3)CC[C@]3(C)[C@H](CC[C@@H]4[C@@]5(C)CC=C(C6=CC[C@@](CF)(C(=O)O)CC6)C(C)(C)[C@@H]5CC[C@]43C)[C@@H]12 — t1/2 (healthy human; oral, 400 mg, single ascending dose, geometric mean): 23.7 h
COc1ccc(S(=O)(=O)Nc2nc(-c3cccc([N+](=O)[O-])c3)c(CN3CCCCC3)s2)cc1OC — concentration (mouse wild type, brain; oral, 300 mg/kg, 5 h): 0.119 µM
Cc1ccc2[nH]c(=O)c(CC(=O)O)c(-c3ccccc3)c2c1 — pKa1 (UV-metric titration; water; 25.0 °C): 4.22 ± 0.01
CNCc1ccc(-c2[nH]c3cc(F)cc4c3c2CCNC4=O)cc1 — Tmax (human patients, plasma; oral, 240 mg twice daily, day 15, steady state, median): 1.5 h
acyl ghrelin (human) — brain/serum ratio (mouse, wild type, cortex; intravenous, 10 min): 5.84 µL/g
NC(=O)OCC(COC(N)=O)c1ccccc1 — AST (Sprague-Dawley rat, male, blood; oral, 300 mg/kg, 6 h): 88.8 ± 7.9 U/L
Cc1cc(C)c(C#N)c(SCC(=O)c2ccc(F)cc2F)n1 — microsomal CLint (metabolic stability; human, liver microsomes; 0.5 µM, pH 7.4): 690 µL/min/mg
CC[C@@H]1CN(C(=O)NCC(F)(F)F)C[C@@H]1c1cnc2cnc3[nH]ccc3n12 — renal clearance (human, severe renal impairment, urine and plasma; oral, 15 mg single dose, extended release, fasted, geometric mean): 15.7 mL/min
COc1cccc(CN)c1O — brain concentration (mouse C57BL/6N male, brain; oral drinking water, 5 g/L/day, 1 week): 126 µM
Cn1c(-c2ccc(C(N)=O)cc2F)nnc1C(C)(C)Oc1c(F)cc(Cl)cc1F — AUC(0-inf) mean (young Japanese subjects, plasma; oral, 10 mg single dose, day 1): 1280 ng·h/mL
CN[C@H]1C(=O)N[C@@H]2Cc3ccc(cc3)Oc3cc4cc(c3O[C@@H]3O[C@H](C(=O)O)[C@@H](O)[C@H](O)[C@H]3NC(=O)CCCCCCCCC(C)C)Oc3ccc(cc3Cl)[C@@H](O)[C@@H]3NC(=O)[C@H](NC(=O)[C@@H]4NC(=O)[C@@H](NC2=O)c2cc(cc(O)c2Cl)Oc2cc1ccc2O)c1ccc(O)c(c1)-c1c(O[C@H]2O[C@H](CO)[C@@H](O)[C@H](O)[C@@H]2O)cc(O)cc1[C@@H](C(=O)NCCCN(C)C)NC3=O — intercompartmental clearance (population PK model; human patients): 0.038 L/h
CC(C)=CCC[C@](C)(O[C@@H]1O[C@H](CO)[C@@H](O)[C@H](O)[C@H]1O)[C@H]1CC[C@]2(C)[C@@H]1[C@H](O)C[C@@H]1[C@@]3(C)CC[C@H](O)C(C)(C)[C@@H]3[C@@H](O[C@@H]3O[C@H](CO)[C@@H](O)[C@H](O)[C@H]3O[C@@H]3O[C@@H](C)[C@H](O)[C@@H](O)[C@H]3O)C[C@]12C — CL/F (Sprague Dawley rat, male, plasma; oral, 45 mg/kg, in red ginseng extract): 310 ± 91.7 mL/min/kg
CC(C)C[C@H](NC(=O)[C@H](CCCNC(=N)N)NC(=O)[C@H](CC(N)=O)NC(=O)[C@H](CC(=O)O)NC(=O)[C@H](CCCNC(=N)N)NC(=O)CNC(=O)CNC(=O)CNC(=S)Nc1ccc(C[C@H]2CN(CC(=O)O)CCN(CC(=O)O)CCN2CC(=O)O)cc1)C(=O)N[C@@H](CC(N)=O)C(=O)N[C@H](C(=O)NCC(=O)NCC(=O)N[C@H](C(=O)N[C@@H](Cc1ccc(O)cc1)C(=O)N[C@@H](Cc1ccccc1)C(=O)N[C@@H](CC(C)C)C(=O)N[C@H](C(=O)N[C@H](C(=O)N[C@@H](CCCNC(=N)N)C(=O)N[C@@H](CCC(N)=O)C(=O)O)[C@@H](C)O)[C@@H](C)O)[C@@H](C)O)C(C)C [fluorine-18 labelled] — intact parent radiotracer (radio-HPLC; mouse (HepG2 tumour-bearing), liver; intravenous, 5.55 MBq, 1 h): 93 ± 2.77%
C[C@](N)(Cc1ccc(O)c(O)c1)C(=O)O — solubility (static gravimetric method; supercritical CO2, 701.1 kg/m3; 5 h, 323 K, pressure 15 MPa): 114 µg/mL (≈ 540 µM)
CN[C@H](CC(C)C)C(=O)N[C@H]1C(=O)N[C@@H](CC(N)=O)C(=O)N[C@H]2C(=O)N[C@H]3C(=O)N[C@H](C(=O)N[C@H](C(=O)O)c4cc(O)cc(O)c4-c4cc3ccc4O)[C@H](O)c3ccc(c(Cl)c3)Oc3cc2cc(c3O[C@@H]2O[C@H](CO)[C@@H](O)[C@H](O)[C@H]2O[C@H]2C[C@](C)(N)[C@H](O)[C@H](C)O2)Oc2ccc(cc2Cl)[C@H]1O — time above MIC (microdialysis; pig (Danish Landrace), cortical bone; iv infusion, 1000 mg over 100 min, MIC 2.0 µg/mL, added: meropenem co-administered): 139 min
O=C1N=C(N2CCOCC2)CN1c1ccc(Cl)cc1 — terminal half-life (beagle dog, both sexes, plasma; oral, 30 mg/kg, day 0, tablets, single dose): 1.75 h

Excerpt of the above:
CC(C)C[C@H](NC(=O)[C@H](CCCNC(=N)N)NC(=O)[C@H](CC(N)=O)NC(=O)[C@H](CC(=O)O)NC(=O)[C@H](CCCNC(=N)N)NC(=O)CNC(=O)CNC(=O)CNC(=S)Nc1ccc(C[C@H]2CN(CC(=O)O)CCN(CC(=O)O)CCN2CC(=O)O)cc1)C(=O)N[C@@H](CC(N)=O)C(=O)N[C@H](C(=O)NCC(=O)NCC(=O)N[C@H](C(=O)N[C@@H](Cc1ccc(O)cc1)C(=O)N[C@@H](Cc1ccccc1)C(=O)N[C@@H](CC(C)C)C(=O)N[C@H](C(=O)N[C@H](C(=O)N[C@@H](CCCNC(=N)N)C(=O)N[C@@H](CCC(N)=O)C(=O)O)[C@@H](C)O)[C@@H](C)O)[C@@H](C)O)C(C)C [fluorine-18 labelled] — intact parent radiotracer (radio-HPLC; mouse (HepG2 tumour-bearing), liver; intravenous, 5.55 MBq, 1 h): 93 ± 2.77%
C[C@](N)(Cc1ccc(O)c(O)c1)C(=O)O — solubility (static gravimetric method; supercritical CO2, 701.1 kg/m3; 5 h, 323 K, pressure 15 MPa): 114 µg/mL (≈ 540 µM)
